Results collected from several papers.
Compare with care: the assays were run in different laboratories.
TDP1: Tyrosyl-DNA phosphodiesterase 1 (TDP1, Homo sapiens, UniProt Q9NUW8)
Sequence of UniProt Q9NUW8 (whole entry, looked up): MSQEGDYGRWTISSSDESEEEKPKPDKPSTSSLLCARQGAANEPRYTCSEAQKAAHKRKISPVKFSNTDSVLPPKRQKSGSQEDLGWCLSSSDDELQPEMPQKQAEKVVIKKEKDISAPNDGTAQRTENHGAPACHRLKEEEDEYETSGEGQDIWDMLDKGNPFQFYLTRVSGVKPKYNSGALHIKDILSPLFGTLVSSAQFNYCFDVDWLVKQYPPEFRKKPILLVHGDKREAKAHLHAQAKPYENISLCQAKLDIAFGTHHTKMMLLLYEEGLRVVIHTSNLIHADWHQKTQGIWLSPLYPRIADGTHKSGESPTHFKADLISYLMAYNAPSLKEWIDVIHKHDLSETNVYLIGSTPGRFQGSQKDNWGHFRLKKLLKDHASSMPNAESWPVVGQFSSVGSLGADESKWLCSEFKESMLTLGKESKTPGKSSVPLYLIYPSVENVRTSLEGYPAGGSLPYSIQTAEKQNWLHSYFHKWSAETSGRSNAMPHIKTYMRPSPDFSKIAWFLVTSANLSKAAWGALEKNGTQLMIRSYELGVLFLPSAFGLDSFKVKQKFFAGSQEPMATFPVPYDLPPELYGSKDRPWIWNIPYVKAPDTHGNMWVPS
CDPK1: Calcium-dependent protein kinase 1 (CDPK1, Plasmodium falciparum, UniProt P62344)

SMILES | target | test | setting | scale | quantity | value
Cn1c(C=NOCc2ccc(-c3nc4cc(-c5ccccc5)ccn4c3Nc3ccc(C(=O)O)cc3)cc2)nc2cc([N+](=O)[O-])ccc21 | TDP1 | enzyme activity, inhibitor | 100 µM, unpurified oxime | – | inhibition | 96.3%
Cc1cnc2nc1Nc1cccc(c1)COC/C=C/COCc1cc(ccc1OCCN1CCOCC1)N2 | CDPK1 | binding | 0.1 µM | – | remaining binding | 84%
CNC1C[S+]2CC[S+]3CC[S+](C1)[Ru-4]321([N]=C=S)[n]2c3ccc(OC)cc3c3c4c(c5cc(F)c[n+]1c5c32)C(=O)NC4=O (stereo not shown) | CDPK1 | KinomeScan | 0.1 µM | reference: control | binding | 100%
COc1cc(Nc2nccc(-c3cnn4nc(OC)ccc34)n2)cc(C(F)(F)F)c1 | CDPK1 | binding, competition with immobilised ligand | 1 µM | – | remaining binding | 80%
Nc1ncc2c(n1)-c1c([nH]c3ccc(C4=CCOCC4)cc13)CCC2 | CDPK1 | binding, competition with immobilised ligand | 1 µM | – | remaining binding | 91%
Cc1ccc(-c2c(/C=C(\C#N)C(=O)NC(C)C)n(CCCO)c3ncnc(N)c23)cc1 | CDPK1 | cell-free assay, competition with immobilised ligand | 1 µM | – | remaining binding | 68%
O=C(O)c1ccc(Nc2c(-c3ccccc3)nc3ccc(CON=Cc4cc(Br)c(Br)o4)cn23)cc1 | TDP1 | enzyme activity, inhibitor | 100 µM, unpurified compound | – | inhibition | 37%
COc1c(Cl)cccc1Nc1c(-c2ccncc2C#C[C@@]2(C)CCCN2C(=O)/C=C/CN(C)C)[nH]c2c1C(=O)NCC2 | CDPK1 | cell-free assay, competition with immobilised ligand | 3 µM | – | remaining binding | 26%
CCN1CCN(Cc2ccc(C(=O)Nc3ccc(C)c(NCc4cnc5[nH]ccc5c4OC)c3)cc2C(F)(F)F)CC1 | CDPK1 | binding, competition with immobilised ligand | 1 µM | – | remaining binding | 2.6%
CC(C)=CC1OC(C)(C)C2C=C3C(=O)C(Cl)=CC(O)C3C3C(O)C4OC4C(=O)C132 (stereo not shown) | CDPK1 | cell-free assay, competition with immobilised ligand | 10 µM | – | remaining binding | 81%
C=CC(=O)N1CCc2ccc(-n3c(=O)ccc4cnc5ccc(-c6cnn(C)c6)cc5c43)cc21 | CDPK1 | KINOMEscan | 1 µM | reference: control | remaining binding | 100%
C=CC(=O)N1CCCC(n2c(=O)c3ncccc3n(Cc3ccc(Oc4ccccc4)cc3)c2=O)C1 (stereo not shown) | CDPK1 | cell-free assay, competition with immobilised ligand | 1 µM | – | remaining binding | 60%
CNC(=O)C1CCN(c2cc(C)c(F)cc2NC(=O)c2ccc(-c3cc(O)ccc3C)c(C)c2)CC1 | CDPK1 | binding, competition with immobilised ligand | 1 µM | – | remaining binding | 100%

Repeated from above:
SMILES | target | test | setting | scale | quantity | value
Nc1ncc2c(n1)-c1c([nH]c3ccc(C4=CCOCC4)cc13)CCC2 | CDPK1 | binding, competition with immobilised ligand | 1 µM | – | remaining binding | 91%
